{"data": "Published values of several laboratories", "note": "Numbered parts are unrelated; each lists some results of a single study. Several values in a cell are separate wells, animals, samples, runs or records."}
{"data": "Series 1", "target": "Sodium-dependent neutral amino acid transporter B(0)AT1 (SLC6A19, Homo sapiens, UniProt Q695T7)", "method": "FLIPR membrane potential", "cells": "CHO-BC", "tested at": "30 µM", "setting": "unit not given", "reference": "uninhibited", "sequence of UniProt Q695T7 (whole entry, looked up)": "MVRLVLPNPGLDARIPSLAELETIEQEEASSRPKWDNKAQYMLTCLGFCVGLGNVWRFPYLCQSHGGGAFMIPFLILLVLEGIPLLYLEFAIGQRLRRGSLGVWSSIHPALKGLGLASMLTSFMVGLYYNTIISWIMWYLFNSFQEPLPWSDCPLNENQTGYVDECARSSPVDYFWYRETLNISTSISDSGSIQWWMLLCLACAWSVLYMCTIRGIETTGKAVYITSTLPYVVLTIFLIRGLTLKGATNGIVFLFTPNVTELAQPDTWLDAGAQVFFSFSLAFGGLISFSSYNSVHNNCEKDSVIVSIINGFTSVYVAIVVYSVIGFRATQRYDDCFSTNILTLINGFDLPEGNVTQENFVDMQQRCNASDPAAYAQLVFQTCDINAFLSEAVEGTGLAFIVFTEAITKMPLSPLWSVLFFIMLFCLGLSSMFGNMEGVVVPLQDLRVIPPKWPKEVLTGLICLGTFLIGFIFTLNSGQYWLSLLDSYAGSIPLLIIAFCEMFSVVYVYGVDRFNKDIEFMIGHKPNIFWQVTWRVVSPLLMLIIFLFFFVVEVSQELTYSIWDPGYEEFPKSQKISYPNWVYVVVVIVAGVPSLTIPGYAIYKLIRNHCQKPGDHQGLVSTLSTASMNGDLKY"}
{"SMILES": "CON(C)C(=O)COc1cc(C)c(Cl)c(C)c1", "remaining activity": "0.89 and 0.949 and 1.03 and 1.24 and 1.08"}
{"SMILES": "Cc1cc(NCC(=O)NC(C)C)cc(C)c1Cl", "remaining activity": "0.103 and 0.189 and 0.141 and 0.177"}
{"SMILES": "Cc1cc(OCC(=O)OC(C)C)cc(C)c1Cl", "remaining activity": "1.11 and 1.2 and 1.02 and 0.935 and 0.928"}
{"SMILES": "Cc1cc(Cl)ccc1OCC(=O)NC(C)C", "remaining activity": "0.832 and 0.928 and 0.919 and 0.889"}
{"SMILES": "Cc1cc(OCC(=O)NC(C)C)ccc1Cl", "remaining activity": "0.101 and 0.147 and 0.0989 and 0.377 and 0.124"}
{"SMILES": "CCCCNC(=O)COc1cc(C)c(Cl)c(C)c1", "remaining activity": "1 and 1.14 and 0.965 and 1.05"}
{"data": "Series 2", "Structure (SMILES)": "Cc1ncsc1-c1ccc(C(CO)NC(=O)C2CC(O)CN2C(=O)C(C(C)C)n2cc(-c3ccc(COc4c(-c5c(C)c(F)cc6[nH]ncc56)c(C5CC5)cc5c(N6CC7CC6CN7)nc(OC6CCOCC6)nc45)cc3)nn2)cc1 (centres unmarked)"}
{"test system": "KP-4 xenograft, mouse", "setting": "30 mg/kg once weekly, day 7", "tumour volume": "227 mm3 and 316 mm3 and 232 mm3 and 317 mm3 and 272 mm3"}
{"test system": "mouse, lung LXFA sample A PDX", "setting": "10 mg/kg twice weekly, day 2", "tumour volume": "139 mm3 and 158 mm3 and 58.1 mm3 and 133 mm3 and 83.5 mm3 and 207 mm3 and 109 mm3 and 250 mm3"}
{"test system": "mouse, A-375 xenograft", "setting": "sc, 30 mg/kg once daily, day 15", "tumour volume": "1020 mm3 and 719 mm3 and 713 mm3 and 689 mm3 and 1240 mm3"}
{"test system": "GP2d xenograft, mouse", "setting": "30 mg/kg twice weekly, day 14", "tumour volume": "99.5 mm3 and 184 mm3 and 164 mm3 and 171 mm3 and 133 mm3"}
{"test system": "mouse, A-375 xenograft", "setting": "sc, 30 mg/kg once daily, day 3", "tumour volume": "222 mm3 and 213 mm3 and 162 mm3 and 197 mm3 and 242 mm3"}
{"test system": "mouse, lung LXFA sample B PDX", "setting": "10 mg/kg twice weekly, day 0", "tumour volume": "85.6 mm3 and 363 mm3 and 56.5 mm3 and 50.4 mm3 and 93 mm3 and 212 mm3 and 163 mm3 and 103 mm3"}
{"test system": "mouse, PK-59 xenograft", "setting": "0.3 mg/kg, day 10", "tumour volume": "864 mm3 and 1010 mm3 and 834 mm3 and 817 mm3 and 729 mm3"}
{"test system": "mouse, PK-59 xenograft", "setting": "subcutaneous, 30 mg/kg once daily, day 18", "tumour volume": "45 mm3 and 44.5 mm3 and 43.7 mm3 and 58.2 mm3 and 42.1 mm3"}
{"test system": "GP2d xenograft, mouse", "setting": "30 mg/kg once weekly, day 4", "tumour volume": "228 mm3 and 143 mm3 and 178 mm3 and 179 mm3"}
{"test system": "mouse, PK-59 xenograft", "setting": "1 mg/kg, day 21", "tumour volume": "1240 mm3 and 1210 mm3 and 1090 mm3 and 1410 mm3 and 1020 mm3"}
{"data": "Series 3", "SMILES": "C[C@@H]1CN(c2ccc(-c3cc(C(=O)NCCOCCOCCOCCOCCNC(=O)/C=C/c4[nH]cc(C(=O)N[C@@H](CC(N)=O)c5ccc(F)c(Cl)c5)c4-c4ccc(Cl)cc4F)ccc3F)cc2NC(=O)c2c[nH]c(=O)cc2C(F)(F)F)C[C@H](C)N1C", "observed": "thermal unfolding", "method": "differential scanning fluorimetry", "tested at": "5.5 µM", "reading": "higher = more unfolded", "DCAF1": "DDB1- and CUL4-associated factor 1 (DCAF1, Homo sapiens, UniProt Q9Y4B6)", "WDR5": "WD repeat-containing protein 5 (WDR5, Homo sapiens, UniProt P61964)", "sequence of UniProt Q9Y4B6 (whole entry, looked up)": "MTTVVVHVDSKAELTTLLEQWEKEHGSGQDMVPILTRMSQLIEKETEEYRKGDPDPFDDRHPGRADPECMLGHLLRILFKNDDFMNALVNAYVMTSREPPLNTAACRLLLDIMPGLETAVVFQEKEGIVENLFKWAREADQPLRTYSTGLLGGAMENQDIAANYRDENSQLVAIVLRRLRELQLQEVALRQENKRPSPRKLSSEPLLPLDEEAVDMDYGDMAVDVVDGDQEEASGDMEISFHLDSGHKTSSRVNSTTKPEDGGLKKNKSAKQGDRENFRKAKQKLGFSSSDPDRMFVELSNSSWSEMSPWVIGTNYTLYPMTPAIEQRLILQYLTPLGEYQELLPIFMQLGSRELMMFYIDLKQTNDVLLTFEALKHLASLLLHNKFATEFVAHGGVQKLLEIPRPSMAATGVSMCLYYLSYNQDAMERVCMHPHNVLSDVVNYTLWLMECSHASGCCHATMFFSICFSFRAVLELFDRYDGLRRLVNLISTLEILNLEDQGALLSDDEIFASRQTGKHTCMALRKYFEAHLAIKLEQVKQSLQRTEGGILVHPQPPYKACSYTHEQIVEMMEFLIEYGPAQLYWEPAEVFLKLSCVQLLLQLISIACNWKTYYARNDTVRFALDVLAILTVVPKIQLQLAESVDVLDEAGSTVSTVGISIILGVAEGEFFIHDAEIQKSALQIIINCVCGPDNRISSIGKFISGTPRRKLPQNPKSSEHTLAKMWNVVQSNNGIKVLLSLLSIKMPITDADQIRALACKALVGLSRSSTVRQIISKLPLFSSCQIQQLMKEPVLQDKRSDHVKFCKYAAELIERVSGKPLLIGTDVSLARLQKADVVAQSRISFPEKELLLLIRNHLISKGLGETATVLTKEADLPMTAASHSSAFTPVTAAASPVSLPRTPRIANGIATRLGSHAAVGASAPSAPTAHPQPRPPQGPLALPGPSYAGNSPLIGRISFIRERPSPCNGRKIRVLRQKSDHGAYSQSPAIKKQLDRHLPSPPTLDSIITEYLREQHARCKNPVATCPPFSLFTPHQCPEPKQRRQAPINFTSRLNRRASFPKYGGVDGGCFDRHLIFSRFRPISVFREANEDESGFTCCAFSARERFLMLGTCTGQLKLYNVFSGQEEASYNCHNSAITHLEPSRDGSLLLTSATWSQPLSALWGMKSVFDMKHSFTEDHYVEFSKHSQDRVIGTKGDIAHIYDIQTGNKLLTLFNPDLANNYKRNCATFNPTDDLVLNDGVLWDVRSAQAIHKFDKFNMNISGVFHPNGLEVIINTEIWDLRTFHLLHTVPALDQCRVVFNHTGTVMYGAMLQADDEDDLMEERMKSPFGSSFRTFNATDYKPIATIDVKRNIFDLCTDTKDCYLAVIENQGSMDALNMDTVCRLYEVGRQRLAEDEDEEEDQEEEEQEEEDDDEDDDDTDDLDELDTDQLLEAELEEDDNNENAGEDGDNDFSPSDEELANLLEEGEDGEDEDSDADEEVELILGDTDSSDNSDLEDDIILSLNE"}
{"target": "DCAF1", "setting": "49.6 °C", "SYPRO Orange fluorescence": "14900 a.u."}
{"target": "DCAF1", "setting": "76.01 °C", "SYPRO Orange fluorescence": "48900 a.u."}
{"target": "DCAF1", "setting": "73.41 °C", "SYPRO Orange fluorescence": "51800 a.u."}
{"target": "WDR5", "setting": "88.41 °C", "SYPRO Orange fluorescence": "52800 a.u."}
{"target": "WDR5", "setting": "63.61 °C", "SYPRO Orange fluorescence": "14100 a.u."}
{"target": "DCAF1", "setting": "93.01 °C", "SYPRO Orange fluorescence": "31600 a.u."}
{"target": "DCAF1", "setting": "87.01 °C", "SYPRO Orange fluorescence": "37800 a.u."}
{"target": "WDR5", "setting": "51.2 °C", "SYPRO Orange fluorescence": "16700 a.u."}
{"target": "DCAF1", "setting": "44.2 °C", "SYPRO Orange fluorescence": "12700 a.u."}
{"target": "DCAF1", "setting": "43.6 °C", "SYPRO Orange fluorescence": "12500 a.u."}
{"target": "DCAF1", "setting": "64.01 °C", "SYPRO Orange fluorescence": "56800 a.u."}
{"data": "Series 4", "target": "Membrane-associated tyrosine- and threonine-specific cdc2-inhibitory kinase (PKMYT1, Homo sapiens, UniProt Q99640)", "observed": "binding", "method": "HTRF", "tested at": "1.37 nM", "Target sequence (Q99640 1-499)": "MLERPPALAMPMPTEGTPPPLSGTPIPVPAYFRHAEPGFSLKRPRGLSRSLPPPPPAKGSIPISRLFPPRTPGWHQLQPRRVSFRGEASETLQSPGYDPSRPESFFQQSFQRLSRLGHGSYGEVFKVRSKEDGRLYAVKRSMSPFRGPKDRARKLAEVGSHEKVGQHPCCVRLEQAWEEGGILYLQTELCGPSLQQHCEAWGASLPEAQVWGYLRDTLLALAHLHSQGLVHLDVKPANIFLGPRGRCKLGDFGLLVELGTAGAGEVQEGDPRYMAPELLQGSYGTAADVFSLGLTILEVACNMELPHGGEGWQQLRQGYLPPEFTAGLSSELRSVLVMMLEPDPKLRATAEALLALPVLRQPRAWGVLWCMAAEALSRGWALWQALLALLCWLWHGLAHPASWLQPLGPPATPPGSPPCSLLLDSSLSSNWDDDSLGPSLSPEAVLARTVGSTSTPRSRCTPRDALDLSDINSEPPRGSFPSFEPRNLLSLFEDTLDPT"}
{"Compound": "Cc1ccc(O)c(C)c1-c1cnc2[nH]c(-c3cnc(N4CCC(CN5CCN(c6ccc(NC7CCC(=O)NC7=O)c(F)c6)CC5)CC4)nc3)cc2c1C#N (racemic)", "inhibition": "14.2% and 13.9%"}
{"Compound": "Cc1ccc(O)c(C)c1-c1cnc2[nH]c(-c3cnc(N4CCC5(CC4)CC(N4CCN(c6ccc7c(c6)C(=O)N(C6CCC(=O)NC6=O)C7=O)CC4)CO5)nc3)cc2c1C#N (mixture of isomers)", "inhibition": "16.2% and 14.2%"}
{"Compound": "Cc1ccc(O)c(C)c1-c1cnc2[nH]c(-c3cnc(N4CCC(CCN5CCN(c6cc7c(cc6F)c(N6CCC(=O)NC6=O)nn7C)CC5)CC4)nc3)cc2c1C#N", "inhibition": "22.5% and 20.9%"}
{"Compound": "Cc1ccc(O)c(C)c1-c1cnc2[nH]c(-c3cnc(N4CCC(CN5CCN(c6c(F)cc(NC7CCC(=O)NC7=O)cc6F)CC5)CC4)nc3)cc2c1C#N (racemic)", "inhibition": "-1.04% and 0.97%"}
{"Compound": "Cc1ncc(-c2cc3c(N)c(-c4c(C)ccc(O)c4C)cnc3[nH]2)cn1", "inhibition": "-9.85% and -6.68%"}
{"note": "Some of these lines once more (series 3):"}
{"target": "WDR5", "setting": "88.41 °C", "SYPRO Orange fluorescence": "52800 a.u."}
{"target": "DCAF1", "setting": "93.01 °C", "SYPRO Orange fluorescence": "31600 a.u."}
